# Measured values collected from several papers.
# Numbered parts are unrelated; each lists some results of a single study.

# Series 1
# Target: RING finger protein unkempt homolog, zinc fingers 1-6, GST-SBP tag (UNK, Homo sapiens, UniProt Q9C0B0, residues 30-357)
# Method: RNA Bind-n-Seq
# Form: RNA
# Medium: in vitro
# Tested at: not given
# Setting: RNA with constant flanks, ends assumed
# Relative to: input RNA pool
# Direction: higher = stronger binding
# Residues (chain): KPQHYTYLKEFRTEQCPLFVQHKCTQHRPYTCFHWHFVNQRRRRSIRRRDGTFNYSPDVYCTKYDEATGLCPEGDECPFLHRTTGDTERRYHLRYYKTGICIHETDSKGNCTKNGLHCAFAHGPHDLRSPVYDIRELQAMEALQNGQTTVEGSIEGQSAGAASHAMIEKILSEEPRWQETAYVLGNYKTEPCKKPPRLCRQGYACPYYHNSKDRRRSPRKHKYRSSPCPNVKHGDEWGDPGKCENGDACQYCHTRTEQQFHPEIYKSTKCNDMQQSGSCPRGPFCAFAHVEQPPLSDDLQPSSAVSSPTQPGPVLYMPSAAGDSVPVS
Oligonucleotide,bound/input enrichment [ratio]
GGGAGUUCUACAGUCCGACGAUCUUGACUCUCCUCUUUACAGAGCUAGCAAAAGUAAUAGAGAGCUCUGCAAAGGGUUUCCCCCGUUUUAUCUCUGAUAUGCUGUCUAAGUGCAAAGUUCAGAAAGUGAUUCUUCAUUGUUUGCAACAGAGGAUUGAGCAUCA,0.136
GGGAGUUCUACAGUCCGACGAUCAAACAAGCCUUUGAAAGAUGUCAUAGGCUUUCUGAUCCUUCUGAUUUACCAAGGAAUGCCUUCCGAAUUUUUACCAUUCUUGUGGAAUUUUUAUGUAUUGAGCAUAUUGAUUAUGCUUUACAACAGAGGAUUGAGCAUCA,0.075
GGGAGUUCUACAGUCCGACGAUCAGUUUGCUUGGGUUGGUUUUUUGUUUUUGUUUUUCCUGGAAAACAUUCAGUGAGAGAAGUAACCGAUUGAAAACAAAUGAAUUCUCAACUUCUAUGUUGACCAUGUAGAGAGUUCAGACACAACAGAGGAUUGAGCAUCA,0.23
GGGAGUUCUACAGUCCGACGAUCGAGCCACCAUACAGAGUACCUAGGGAUGAUUGGGAAGAAAAAAGGCACUUUAGAAGAGACCGUUUUGAUGAUCGUGGUCCUAGUCUCAACCCAGUGCUUGAUUAUGACCAUGGAAGUCGUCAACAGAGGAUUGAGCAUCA,0.217
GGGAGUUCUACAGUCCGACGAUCGAAUUUUGUGCAUUUUCUCAGACAUUGCAACCUCAGAACAGGGAUGCUUUUUUCAAAACCUCCGCAAAAUUGGGAAUUCUUCCAGCUCUUGAAAUUGUAAUGGGCAUGGAUGACUUGCAACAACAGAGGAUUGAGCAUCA,0.174
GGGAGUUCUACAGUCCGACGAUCGCUGCUCAGAUAAACGGUAAAACAGAAUCUAGUUCUGUGGUUCGAACCAGAAGCAACCGAGUGGUUGCCGAUCCAGUUGUCACUGAGCAACCAUCUACUUCUUCAGCUGCAAAGACUUUUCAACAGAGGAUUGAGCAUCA,0.103
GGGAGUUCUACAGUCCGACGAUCAGAAAAUAAAUGAUUUUUAAGUUAUGUCUAUUAAUCUGACUGUAGAUAUAUAUAUUUACCUCCUCCGUAAUGCAAGAAGUGUUUGUGGGAAGCAGAGAAGCAAGCAACUGUAUUUCUUGUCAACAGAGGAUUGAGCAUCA,0.303
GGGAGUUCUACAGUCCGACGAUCGGUUUCAAUGAAACAGAUGAUUUGAAGAGAGCUGAGAGUAUGCUUCAACAAGCAGAUAAAUCCGGUUGCAGACAGUUUGUUACCCCUGCUGAUGUUGUCAGUGGAAACCCCAAACUCAACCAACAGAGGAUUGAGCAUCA,0.0969

# Series 2
# Target: RNA binding protein fox-1 homolog 2, RRM domain, GST-SBP tag (RBFOX2, Homo sapiens, UniProt O43251-10, residues 100-194)
# Method: RNA Bind-n-Seq
# Form: RNA
# Medium: in vitro
# Tested at: 365 nM
# Setting: natural RNA segment, single round, ends assumed
# Relative to: no-protein control
# Direction: higher = stronger binding
# Residues (chain): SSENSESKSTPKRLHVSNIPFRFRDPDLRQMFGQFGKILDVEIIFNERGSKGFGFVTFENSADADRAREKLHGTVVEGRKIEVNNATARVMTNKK
Oligonucleotide,RBNS enrichment (R)
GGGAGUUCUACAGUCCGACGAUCACUGAAAUCUGUAUCAGCUAAGAGUCCUCCAAUCCUGGUCCCAUUAACUCCAAGUGCCUUUUUGACAGUGACAACAGACAGUCCCUCGCUUUUUGUUGUUGUUGGUUUUCUGGAAUUCUCGGGUGCCAA,0.315
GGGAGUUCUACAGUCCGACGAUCAGGCUCGCUGCUCUCUGGGCCUCAGUUUCCCCACCUGCCAGCGGGCUCGGCCCUGUCCUCCUCACAGGCUGGUGUGGCCGUCAGGGUGGGUGGGGUUAUUGUUAGUAGGCUGGAAUUCUCGGGUGCCAA,0.478
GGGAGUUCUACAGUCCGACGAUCAAGGACUCACAUACAGUGCCUGGAGAAAGCCAAAGACCUUUAUUUCUUCCUGCCUCCCCGUGGGAAGCCUCCGCCCUGAGGUCCGCUGGCCCACCACCCCUGGGUGCUCAUGGAAUUCUCGGGUGCCAA,0.267
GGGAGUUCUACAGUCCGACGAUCCUGGGUGUCAGUGGGAAGGAGACAGCAGAGCUCAGGCUUUGCCCUUUGACAGAAACCUAAAGACACAUCCACAUCCAUGCAUAGGGCUGUUGCUUGUUGUGUUGUAGGCAUGGAAUUCUCGGGUGCCAA,2.52
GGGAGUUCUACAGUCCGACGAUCCAAACUGUUCAAGUAUUUUUUUUUAAACCUCCCUGUAUAGAAAAAAAUCAUUAAGGAUGUAAAAGCCAUGCUUGCCUAUUUGCUGUAUACAUGUAAUGAAAUUGUAGAUAUGGAAUUCUCGGGUGCCAA,2.33
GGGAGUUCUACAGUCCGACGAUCUAUUGUGGGAGAGUCACUUUAAAGACUGUGCUAGUUGGAAACAGAGCUGUUGCUGUUGUCAGUCGAGUGCAGUUUUCUGCAGCGAUGUCAUAAGGAGUCAGAUUCCGUGAUGGAAUUCUCGGGUGCCAA,0.443
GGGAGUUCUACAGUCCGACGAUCGAAGCUACUAAUUUUAUGUCAAGCUUUAAAGUCCAUAAUUGUUAUCUUCAGAAAUAUUAUUUGACCUACAGUAUGUUUAAAUCAAUUUAAUAAAAUCACUUUAUAACAGGUGGAAUUCUCGGGUGCCAA,0.666
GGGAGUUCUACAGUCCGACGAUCGAUGCCCAUGUUUUAUUGCUAUUACUAAAUGUCAAGAUUGUAUGCUAUUAUGUCUUGUAAAUUUCUUUUGUUGGUGUAAAUAUGGAAAUGCCACAUUGGUUAAGUGCCAUUGGAAUUCUCGGGUGCCAA,0.552

# Series 3
# Target: Fragile X messenger ribonucleoprotein 1, C-terminal low-complexity region (Fmr1, Mus musculus, UniProt P35922)
# Method: RNA Bind-n-Seq
# Form: RNA
# Medium: in vitro
# Tested at: 200 nM
# Setting: whole 134-nt RNA, ends assumed
# With: 150 mM LiCl
# Relative to: input library
# Direction: higher = stronger binding
# Library: 7-deaza-guanosine replaces G
Oligonucleotide,log2 enrichment
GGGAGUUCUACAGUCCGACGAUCGUCCUGUGCUACACAUCGUAUGUACCGAAUCGGGGUUUGGGGAAAAAGGGGUUUGGGGAAAGUAUUAUGUUACGCCGUUCGGAUCUGCACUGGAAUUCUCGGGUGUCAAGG,-1.14
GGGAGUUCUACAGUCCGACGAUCGUCCUGUGCUACACAUCGUAUGUACCGAAUCGGUUUUUUUGGUUUUUUUGGUUUUUGGAAAGUAUUAUGUUACGCCGUUCGGAUCUGCACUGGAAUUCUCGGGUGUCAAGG,-1.47
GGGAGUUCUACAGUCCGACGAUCGGUGUUGCUGGAAGAAGCCAAGGAUUUGCUCUCUGACUGGCUGGAUUCUACACUUGGCUGUGAUGUCACUGACAAUUCCAUCUUCUCCAAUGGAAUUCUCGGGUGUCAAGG,-1.18
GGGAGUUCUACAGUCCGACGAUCUGGCCCUGGUGGCAUGCGGGGAGGAAGAGGUGGCCUCAUGGAUCGUGGUGGUCCCGGUGGAAUGUUCAGAUGUGGCCGUGGUGGAGACAGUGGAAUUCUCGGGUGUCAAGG,-0.574
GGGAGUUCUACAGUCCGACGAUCAAGUCCUGUGCUACACAUCGUAUGUACCGAAUCGGGAAAGGGUUUUUGGGUUUGGGAAAGUAUUAUGUUACGCCGUUCGGAUCUGCACUUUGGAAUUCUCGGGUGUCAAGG,-2.5
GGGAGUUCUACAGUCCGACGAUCCACAGACAACACGCACCCACACAGACACAGAGGGAUGGGGUUGGGAUGGGGACAGGGUGCACAGCAGGGCGGGGUAGGACCCCAGCCCCUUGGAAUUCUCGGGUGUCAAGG,-0.00418
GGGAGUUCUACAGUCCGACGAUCGUGCUACACAUCGUAUGUACCGAAUCGGGGUUUUUUUGGGGAAAAAAAGGGGUUUUUUUGGGGAAAGUAUUAUGUUACGCCGUUCGGAUCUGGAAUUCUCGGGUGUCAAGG,-2.61
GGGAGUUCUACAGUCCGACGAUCUGGCCCUGGUGGCAUGCGGGGAGGAAGAGGUGGCCUCAUGGAUCGUGGUGGUCGCGGUGGAAUGUUCAGAGGUGGCCGUGGUGGAGACAGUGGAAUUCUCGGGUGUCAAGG,0.211

# Series 4
# Target: Sal-like protein 4, full length isoform B (SALL4, Homo sapiens, UniProt Q9UJQ4-2, residues 1-616)
# Method: universal PBM
# Form: double-stranded DNA, one strand shown
# Medium: in vitro
# Tested at: not given
# Setting: 8-mer, flanks averaged, mean of replicates
# Direction: higher = stronger binding
Oligonucleotide,E-score
GGTGGAAC,-0.00806
TGAAAGAA,0.173
AATGACGC,-0.00128
AAACACAG,0.15
CATGAGTA,0.052
ATGCCTGA,0.0543
GAAAGGCA,0.184
CTAAGCCC,-0.145
TCTTTTAA,0.21
AGCAGAAA,0.136
AGACCGCT,-0.148
AGTTGCTC,-0.168
AGCGATCC,-0.181
CACGTTAC,0.0347
AATATGCG,0.245
ACGGGCTC,-0.347
GAGCACTA,-0.0728
CACGCGAA,-0.0497
